Experimental data gathered from unrelated publications.
Numbers after ± are the reported error.
Cytochrome P450 2A13: Cytochrome P450 2A13 (Homo sapiens, UniProt Q16696)
Sequence of UniProt Q16696 (whole entry, looked up): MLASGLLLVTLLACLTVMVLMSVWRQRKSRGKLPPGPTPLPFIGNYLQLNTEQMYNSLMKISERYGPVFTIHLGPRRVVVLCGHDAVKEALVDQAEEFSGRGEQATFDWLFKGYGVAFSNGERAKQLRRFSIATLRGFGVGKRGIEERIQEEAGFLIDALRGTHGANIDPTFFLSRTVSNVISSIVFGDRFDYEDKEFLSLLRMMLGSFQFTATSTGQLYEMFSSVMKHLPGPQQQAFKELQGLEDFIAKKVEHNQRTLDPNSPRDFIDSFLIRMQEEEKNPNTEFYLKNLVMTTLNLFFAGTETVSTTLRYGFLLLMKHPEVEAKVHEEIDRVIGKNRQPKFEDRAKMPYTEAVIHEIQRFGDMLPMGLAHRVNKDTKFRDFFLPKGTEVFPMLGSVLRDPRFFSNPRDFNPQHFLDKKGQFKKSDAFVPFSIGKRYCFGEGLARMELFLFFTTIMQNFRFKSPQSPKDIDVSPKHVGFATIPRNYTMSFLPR
gag-pol reverse transcriptase: Gag-Pol polyprotein, reverse transcriptase (gag-pol, Human immunodeficiency virus 1, UniProt P03366)
Uncharacterized protein: Uncharacterized protein (Equus caballus, UniProt Q38RB9)
ACTA1 pyrene-labeled: Actin, alpha skeletal muscle, pyrene-labeled (ACTA1, Oryctolagus cuniculus, UniProt P68135)
Sequence of UniProt P33535 (whole entry, looked up): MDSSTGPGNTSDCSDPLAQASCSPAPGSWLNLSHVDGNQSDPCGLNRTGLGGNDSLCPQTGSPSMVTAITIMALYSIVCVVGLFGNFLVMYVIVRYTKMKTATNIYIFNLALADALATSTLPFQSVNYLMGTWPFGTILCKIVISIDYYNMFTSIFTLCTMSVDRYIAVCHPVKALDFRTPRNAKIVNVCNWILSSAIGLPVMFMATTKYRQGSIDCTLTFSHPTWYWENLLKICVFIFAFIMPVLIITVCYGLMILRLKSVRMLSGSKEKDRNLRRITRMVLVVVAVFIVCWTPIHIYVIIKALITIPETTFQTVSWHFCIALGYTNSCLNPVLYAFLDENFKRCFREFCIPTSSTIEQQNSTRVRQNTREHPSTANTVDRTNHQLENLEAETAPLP
Sequence of UniProt Q8NCC3 (whole entry, looked up): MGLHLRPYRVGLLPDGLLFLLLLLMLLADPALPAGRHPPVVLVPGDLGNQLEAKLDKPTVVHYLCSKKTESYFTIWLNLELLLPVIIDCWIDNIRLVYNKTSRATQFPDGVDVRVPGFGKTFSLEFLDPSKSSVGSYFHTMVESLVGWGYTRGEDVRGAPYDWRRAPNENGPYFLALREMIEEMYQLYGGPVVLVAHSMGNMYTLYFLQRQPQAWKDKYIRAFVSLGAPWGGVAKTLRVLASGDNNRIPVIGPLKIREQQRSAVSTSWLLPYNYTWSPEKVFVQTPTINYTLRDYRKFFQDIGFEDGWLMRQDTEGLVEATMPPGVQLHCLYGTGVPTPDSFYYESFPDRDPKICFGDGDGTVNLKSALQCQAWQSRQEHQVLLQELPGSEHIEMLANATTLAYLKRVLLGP
Sequence of UniProt Q9NZQ7 (whole entry, looked up): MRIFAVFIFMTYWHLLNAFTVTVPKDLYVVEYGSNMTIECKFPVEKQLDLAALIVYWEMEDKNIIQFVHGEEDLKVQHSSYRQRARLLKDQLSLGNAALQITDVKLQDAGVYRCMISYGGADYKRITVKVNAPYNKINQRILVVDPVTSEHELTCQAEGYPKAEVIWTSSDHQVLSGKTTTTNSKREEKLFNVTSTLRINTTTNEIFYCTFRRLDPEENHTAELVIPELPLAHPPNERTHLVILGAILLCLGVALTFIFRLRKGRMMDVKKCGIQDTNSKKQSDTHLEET
Sequence of UniProt Q8BHN3 (whole entry, looked up): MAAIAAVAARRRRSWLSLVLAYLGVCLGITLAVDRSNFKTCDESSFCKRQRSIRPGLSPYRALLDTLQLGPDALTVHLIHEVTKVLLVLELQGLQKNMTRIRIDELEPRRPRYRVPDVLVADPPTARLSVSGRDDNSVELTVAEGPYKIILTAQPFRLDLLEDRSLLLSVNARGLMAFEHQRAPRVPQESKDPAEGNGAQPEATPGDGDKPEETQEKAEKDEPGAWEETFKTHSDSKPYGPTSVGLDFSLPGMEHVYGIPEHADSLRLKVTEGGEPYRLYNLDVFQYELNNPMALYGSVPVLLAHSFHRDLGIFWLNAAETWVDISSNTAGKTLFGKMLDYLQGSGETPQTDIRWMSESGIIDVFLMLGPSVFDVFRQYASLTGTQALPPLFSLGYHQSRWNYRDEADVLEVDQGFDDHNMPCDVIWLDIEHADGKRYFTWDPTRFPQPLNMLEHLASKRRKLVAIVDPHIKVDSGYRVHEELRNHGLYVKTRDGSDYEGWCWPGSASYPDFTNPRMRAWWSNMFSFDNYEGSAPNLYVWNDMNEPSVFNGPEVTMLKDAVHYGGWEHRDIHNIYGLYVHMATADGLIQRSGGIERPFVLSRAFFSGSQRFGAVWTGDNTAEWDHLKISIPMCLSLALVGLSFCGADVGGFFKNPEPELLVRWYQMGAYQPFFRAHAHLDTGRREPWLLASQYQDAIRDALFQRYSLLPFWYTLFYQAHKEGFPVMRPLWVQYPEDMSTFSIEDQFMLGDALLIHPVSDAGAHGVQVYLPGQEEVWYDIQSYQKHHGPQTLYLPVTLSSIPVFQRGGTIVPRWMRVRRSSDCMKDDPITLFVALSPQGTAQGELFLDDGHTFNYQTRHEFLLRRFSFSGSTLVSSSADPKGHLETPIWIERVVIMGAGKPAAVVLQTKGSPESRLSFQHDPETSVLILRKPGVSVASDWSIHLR
Sequence of UniProt Q9NXA8 (whole entry, looked up): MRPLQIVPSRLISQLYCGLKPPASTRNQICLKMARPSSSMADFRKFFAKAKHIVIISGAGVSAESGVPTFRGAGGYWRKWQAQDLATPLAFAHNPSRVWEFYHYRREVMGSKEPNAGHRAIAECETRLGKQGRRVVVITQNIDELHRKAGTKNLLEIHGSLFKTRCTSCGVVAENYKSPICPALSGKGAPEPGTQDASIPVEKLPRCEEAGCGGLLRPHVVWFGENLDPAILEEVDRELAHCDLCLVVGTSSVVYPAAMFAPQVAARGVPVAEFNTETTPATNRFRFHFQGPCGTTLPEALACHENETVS
Sequence of UniProt Q12879 (whole entry, looked up): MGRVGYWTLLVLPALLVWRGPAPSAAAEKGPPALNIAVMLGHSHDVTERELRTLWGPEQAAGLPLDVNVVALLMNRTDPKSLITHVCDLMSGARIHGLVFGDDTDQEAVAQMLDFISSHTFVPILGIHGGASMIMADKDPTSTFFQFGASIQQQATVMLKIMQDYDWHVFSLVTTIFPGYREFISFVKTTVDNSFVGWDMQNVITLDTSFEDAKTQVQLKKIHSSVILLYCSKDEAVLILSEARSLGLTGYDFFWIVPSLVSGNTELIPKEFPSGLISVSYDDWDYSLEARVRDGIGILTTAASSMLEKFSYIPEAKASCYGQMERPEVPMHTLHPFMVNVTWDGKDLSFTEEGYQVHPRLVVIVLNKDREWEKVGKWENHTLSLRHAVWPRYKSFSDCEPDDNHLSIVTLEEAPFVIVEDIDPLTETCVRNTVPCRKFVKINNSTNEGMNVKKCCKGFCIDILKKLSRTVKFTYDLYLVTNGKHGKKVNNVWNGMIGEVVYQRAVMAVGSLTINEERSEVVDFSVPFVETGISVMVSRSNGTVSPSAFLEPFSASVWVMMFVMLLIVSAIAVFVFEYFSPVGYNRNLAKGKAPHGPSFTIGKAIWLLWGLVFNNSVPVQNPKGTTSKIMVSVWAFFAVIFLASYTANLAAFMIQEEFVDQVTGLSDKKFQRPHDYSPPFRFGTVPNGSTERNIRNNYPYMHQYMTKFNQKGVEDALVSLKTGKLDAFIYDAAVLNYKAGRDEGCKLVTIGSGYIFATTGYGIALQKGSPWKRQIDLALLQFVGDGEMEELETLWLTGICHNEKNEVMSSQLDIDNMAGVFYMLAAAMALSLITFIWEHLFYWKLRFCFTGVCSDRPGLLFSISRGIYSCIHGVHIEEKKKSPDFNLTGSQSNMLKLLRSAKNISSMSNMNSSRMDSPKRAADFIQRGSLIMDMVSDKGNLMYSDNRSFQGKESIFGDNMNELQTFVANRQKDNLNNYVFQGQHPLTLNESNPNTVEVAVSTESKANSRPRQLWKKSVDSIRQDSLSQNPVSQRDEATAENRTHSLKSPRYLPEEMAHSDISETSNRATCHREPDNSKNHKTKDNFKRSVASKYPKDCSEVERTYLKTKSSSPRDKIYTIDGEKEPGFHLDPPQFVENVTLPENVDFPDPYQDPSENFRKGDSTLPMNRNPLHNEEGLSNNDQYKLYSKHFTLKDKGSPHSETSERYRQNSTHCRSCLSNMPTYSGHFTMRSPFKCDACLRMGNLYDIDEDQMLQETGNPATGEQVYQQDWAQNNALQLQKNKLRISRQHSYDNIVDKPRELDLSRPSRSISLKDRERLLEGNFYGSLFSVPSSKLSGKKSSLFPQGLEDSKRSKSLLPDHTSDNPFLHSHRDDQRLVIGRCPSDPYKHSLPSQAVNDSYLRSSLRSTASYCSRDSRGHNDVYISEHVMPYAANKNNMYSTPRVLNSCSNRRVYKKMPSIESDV
Sequence of UniProt Q8NDF8 (whole entry, looked up): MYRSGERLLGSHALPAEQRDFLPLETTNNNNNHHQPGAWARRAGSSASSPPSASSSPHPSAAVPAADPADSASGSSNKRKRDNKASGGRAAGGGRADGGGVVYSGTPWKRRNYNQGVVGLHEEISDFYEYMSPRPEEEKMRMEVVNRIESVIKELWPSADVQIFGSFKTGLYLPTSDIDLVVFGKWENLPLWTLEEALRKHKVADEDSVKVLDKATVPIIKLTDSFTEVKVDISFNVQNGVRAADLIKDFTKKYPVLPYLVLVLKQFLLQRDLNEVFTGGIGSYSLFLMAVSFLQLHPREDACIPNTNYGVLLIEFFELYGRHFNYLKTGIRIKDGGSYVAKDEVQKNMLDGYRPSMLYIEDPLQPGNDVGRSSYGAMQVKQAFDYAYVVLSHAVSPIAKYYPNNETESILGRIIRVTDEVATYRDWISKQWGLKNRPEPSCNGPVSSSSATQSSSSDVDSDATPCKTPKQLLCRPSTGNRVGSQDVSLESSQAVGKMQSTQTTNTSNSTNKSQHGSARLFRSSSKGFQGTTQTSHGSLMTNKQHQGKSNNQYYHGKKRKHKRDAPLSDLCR

Cc1c2ccccc2c(C)c2c1ccc1ccccc12  IC50 (Cytochrome P450 2A13; enzyme activity, inhibitor; 20 min, pH 7.4): > 200 µM
O=C1CSC(c2cccc(Cl)c2Cl)N1c1nc(-c2ccc(S(=O)(=O)N3CCOCC3)cc2)cs1 (stereo not drawn)  IC50 (gag-pol reverse transcriptase): > 4 µM
COCCCOc1cc2c(cc1OC)-c1cc(=O)c(C(=O)O)cn1[C@H](C(C)C)C2  IC50 (Terminal nucleotidyltransferase 4B, catalytic domain (Homo sapiens, UniProt Q8NDF8); polyadenylation activity, Kinase-Glo ATP depletion; 1 h, room temperature, with: ATP 25 µM): 0.027 µM
c1ccc2c(c1)-c1cccc3c1c-2cc1ccccc13  IC50 (Cytochrome P450 2A13; enzyme activity, inhibitor; 20 min, pH 7.4): > 200 µM
O=[N+]([O-])c1cc(-c2noc(C3CCC3)n2)ccc1NCCCCCCN1C[C@H](O)[C@@H](O)[C@H](O)[C@H]1CO  IC50 (Ganab (Mus musculus, UniProt Q8BHN3); enzyme activity, inhibitor; with: 4-methylumbelliferyl substrate): < 0.001 µM
C[N+](C)(C)CCOP(=O)([O-])OC[C@H](O)CO  IC50 (PLA2G15 (Homo sapiens, UniProt Q8NCC3); enzyme activity, inhibitor): ~900 µM
C#CCNC(=O)c1ccc(S(=O)(=O)N[C@@H](CCCCNC(=O)c2cc(OS(=O)(=O)F)cc(C(=O)O)c2)C(=O)N[C@@H](Cc2c[nH]c3ccccc23)C(=O)NC2CCC2)cc1  IC50 (SIRT5 (Homo sapiens, UniProt Q9NXA8); inhibitor, fluorogenic; 4 h preincubation, His-tagged enzyme 150 nM, with: NAD+ 500 µM): 30.8 ± 47.8 µM
COc1cc(Nc2ncc(F)c(Nc3ccc4c(n3)NC(=O)C(C)(C)O4)n2)cc(OC)c1OC  IC50 (LTB4R (Homo sapiens, UniProt Q15722)): > 10 µM
C[C@H]1CN(c2n[nH]c3nc(N[C@H]4CC[C@H](NS(=O)(=O)CCC(F)(F)F)CC4)ncc23)CCO1  IC50 (CDC37 (Homo sapiens, UniProt Q16543); biochemical): ≥ 20 µM
O=C1CSC(c2cccc(F)c2)N1c1cccc(S(=O)(=O)Nc2nccs2)c1 (stereo not drawn)  IC50 (gag-pol reverse transcriptase): > 4 µM
c1cc2ccc3cccc4ccc(c1)c2c34  IC50 (Cytochrome P450 2A13; enzyme activity, inhibitor; 20 min, pH 7.4): 15 to 80 µM
COc1cccc(C2SCC(=O)N2c2cccc(S(=O)(=O)Nc3nccs3)c2)c1 (stereo not drawn)  IC50 (gag-pol reverse transcriptase): > 4 µM
CC(C)C[C@H]1CNC(=O)N2C[C@H](C[C@H]2C(N)=O)SCCCCCCSC[C@H](NC(=O)[C@H](Cc2ccccc2)NC(=O)[C@H](CO)NC(=O)[C@@H](N)[C@@H](C)O)C(=O)N[C@@H](CCC(=O)O)C(=O)N[C@@H](Cc2ccc(O)cc2)C(=O)N[C@@H](Cc2c[nH]c3ccccc23)C(=O)N[C@@H](C)C(=O)N[C@@H](CC(C)C)CNC(=O)N1  IC50 (E3 ubiquitin-protein ligase Mdm2, with p53 (MDM2, Homo sapiens, UniProt Q00987); inhibitor): 0.00191 µM
COc1cc2c(Oc3ccc4[nH]c(C)cc4c3F)ccnc2cc1OCC1(N)CC1  grade 1 or 2 ALT elevation (paediatric recurrent refractory sarcoma; 8 mg): 25%
COc1ccc(C[C@H](NC(=O)[C@H](C)NC(=O)CN2CCOCC2)C(=O)N[C@@H](CCC2CCCCC2)C(=O)[C@@]2(C)CO2)cc1  IC50 (PSMB7 (Homo sapiens, UniProt Q99436); inhibitor, competitive ABPP; Raji cell lysate; constitutive proteasome β2c): > 10 µM
OC1c2cccc3ccc4c5ccccc5cc(c4c23)C1O (stereo not drawn)  IC50 (Cytochrome P450 2A13; enzyme activity, inhibitor; 20 min, pH 7.4): > 200 µM
CC[C@H](C)[C@H](NC(=O)[C@H](CC(=O)O)NC(=O)[C@H](CCSC)NC(=O)[C@H](CC(=O)O)NC(=O)[C@@H](N)CCCCN)C(=O)N[C@H](C(=O)N[C@H](C(=O)N[C@@H](CCCCN)C(=O)N[C@@H](Cc1ccccc1)C(=O)O)[C@@H](C)O)[C@@H](C)CC  IC50 (Uncharacterized protein; peptide binding, competitor, competitive radioligand binding; purified horse MHC class I; pH 7): 0.016 µM
COc1ncccc1-c1cnn2ccc(N3CCN(C(=O)OC(C)C)CC3)nc12  IC50 (Glutamate NMDA receptor; GRIN1/GRIN2A (Homo sapiens, UniProt Q05586+Q12879); liability screen): > 25 µM
O=C(CP(=O)(O)O)NO  IC50 (enolase (ENO1 and ENO2); enzyme activity, inhibitor, NADH-linked; with: 2-phosphoglycerate): ~0.02 µM
O=C(O)C(=Cc1ccccc1)CC(P(=O)(O)O)P(=O)(O)O  IC50 (polyphosphate kinase 2 (Cytophaga hutchinsonii, UniProt A0A6N4SMB5); enzyme activity, inhibitor, HPLC; 30 min, 37 °C, with: 0.04 mM ADP and 0.3 mM polyP): 85 µM
CN(C)c1nc(N)c(C(=O)NC(=N)N)nc1Cl  IC50 (Genome polyprotein, 3D RNA polymerase (Coxsackievirus B3, UniProt P03313); RNA polymerase activity, inhibitor, single AMP incorporation; Mg2+ preincubation): 424 ± 31 µM
CC[C@H](C)[C@H](NC(=O)[C@H](CCC(=O)O)NC(=O)[C@@H](NC(=O)CNC(=O)[C@H](CCCNC(=N)N)NC(=O)[C@H](CCC(=O)O)NC(=O)[C@H](CC(C)C)NC(=O)[C@H](CC(=O)O)NC(=O)[C@@H](N)CCCNC(=N)N)C(C)C)C(=O)O  IC50 (Uncharacterized protein; peptide binding, competitor, competitive radioligand binding; purified horse MHC class I; pH 7): 0.0022 µM
[N-]=[N+]=NCC1OC(OC2C(N)CC(N)C(OC3OC(CN)C(O)C(O)C3O)C2O)C(O)C(N)C1O (stereo not drawn)  IC50 (MBNL1-DM2 CCUG repeat RNA complex; complex formation, inhibitor, displacement): 200 ± 5 µM
CSCC[C@H](NC(=O)[C@@H](NC(=O)[C@H](Cc1c[nH]c2ccccc12)NC(=O)[C@H](Cc1ccc(O)cc1)NC(=O)CNC(C)=O)C(C)C)C(=O)N[C@@H](Cc1ccccc1)C(=O)N[C@@H](Cc1ccc(O)cc1)C(N)=O  IC50 (Programmed cell death 1 ligand 1, with PD-1 (CD274, Homo sapiens, UniProt Q9NZQ7); PD-1/PD-L1 binding, ELISA; with: biotinylated human PD-1): 5.99 µM
Cc1cc(O)cc(C)c1C[C@H](N)C(=O)N[C@H](C)C(=O)NCC(=O)N[C@@H](Cc1ccc(Cl)cc1)C(=O)N(C)CCC[C@@]1(c2ccc(F)cc2)OCc2cc(C#N)ccc21  IC50 (Oprm1 (Rattus norvegicus, UniProt P33535)): 0.0269 µM
CO[C@]1([C@@H]2CSC(=O)N2Cc2ccccc2)C[C@H]2C[C@@H](CC[C@H](C)/C=C\C=C\CC/C(C)=C\C(=O)O2)O1  IC50 (ACTA1 pyrene-labeled; actin polymerization, pyrene actin): 0.333 ± 0.076 µM
COc1ccc(-c2ccc(Cc3cnc(Nc4ccc(C#N)cc4)o3)cc2)cc1  IC50 (gag-pol reverse transcriptase; enzyme activity, inhibitor; HIV-1): > 10 µM
NCCc1c[nH]c2ccc(O)cc12  IC50 (SLC18A2 (Homo sapiens, UniProt Q05940); cell-based): 0.5 µM
CC[C@H](C)[C@H](NC(=O)[C@H](CCC(=O)O)NC(=O)[C@H](CCC(N)=O)NC(=O)[C@H](C)NC(=O)[C@H](CCCCN)NC(=O)[C@H](CCCCN)NC(=O)[C@H](CC(C)C)NC(=O)[C@H](CC(=O)O)NC(=O)[C@H](C)N)C(=O)O  IC50 (Uncharacterized protein; peptide binding, competitor, competitive radioligand binding; purified horse MHC class I; pH 7): 0.0077 µM
C/C1=C/C(=O)O[C@@H]2C[C@@H](CC[C@H](C)/C=C\C=C\CC1)O[C@@](OC(=O)c1ccccc1)([C@@H]1CSC(=O)N1)C2  IC50 (ACTA1 pyrene-labeled; actin polymerization, pyrene actin): 0.466 ± 0.051 µM

Some of these lines once more:
C[C@H]1CN(c2n[nH]c3nc(N[C@H]4CC[C@H](NS(=O)(=O)CCC(F)(F)F)CC4)ncc23)CCO1  IC50 (CDC37 (Homo sapiens, UniProt Q16543); biochemical): ≥ 20 µM
COc1ccc(-c2ccc(Cc3cnc(Nc4ccc(C#N)cc4)o3)cc2)cc1  IC50 (gag-pol reverse transcriptase; enzyme activity, inhibitor; HIV-1): > 10 µM
